Published values from different studies.
Compare with care: the assays were run in different laboratories.
Potassium/sodium hyperpolarization-activated cyclic nucleotide-gated channel 1: Potassium/sodium hyperpolarization-activated cyclic nucleotide-gated channel 1 (Homo sapiens, UniProt O60741)
Sequence of UniProt O60741 (whole entry, looked up): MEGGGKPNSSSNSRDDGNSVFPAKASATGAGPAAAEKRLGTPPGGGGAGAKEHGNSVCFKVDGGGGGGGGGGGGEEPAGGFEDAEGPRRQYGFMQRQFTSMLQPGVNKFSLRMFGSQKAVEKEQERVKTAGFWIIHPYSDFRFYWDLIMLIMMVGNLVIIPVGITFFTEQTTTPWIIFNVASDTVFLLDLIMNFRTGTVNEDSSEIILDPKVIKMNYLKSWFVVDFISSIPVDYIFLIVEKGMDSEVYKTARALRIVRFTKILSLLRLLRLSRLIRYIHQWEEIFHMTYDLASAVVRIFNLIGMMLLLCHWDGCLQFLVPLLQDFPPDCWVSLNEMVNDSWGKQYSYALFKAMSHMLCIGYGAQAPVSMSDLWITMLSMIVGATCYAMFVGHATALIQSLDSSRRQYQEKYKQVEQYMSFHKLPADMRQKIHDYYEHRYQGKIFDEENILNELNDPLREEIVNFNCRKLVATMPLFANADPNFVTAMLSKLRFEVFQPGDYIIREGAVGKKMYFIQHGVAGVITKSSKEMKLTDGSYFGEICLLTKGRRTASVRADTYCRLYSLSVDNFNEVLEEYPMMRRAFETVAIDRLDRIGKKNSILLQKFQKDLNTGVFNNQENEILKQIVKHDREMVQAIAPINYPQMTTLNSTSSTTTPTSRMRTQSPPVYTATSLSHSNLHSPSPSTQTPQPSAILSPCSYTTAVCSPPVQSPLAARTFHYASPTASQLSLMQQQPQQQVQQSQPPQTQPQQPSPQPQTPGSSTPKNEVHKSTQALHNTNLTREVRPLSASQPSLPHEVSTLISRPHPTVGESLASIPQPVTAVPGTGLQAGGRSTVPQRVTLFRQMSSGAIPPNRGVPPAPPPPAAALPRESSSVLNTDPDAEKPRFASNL
Sequence of UniProt P43403 (whole entry, looked up): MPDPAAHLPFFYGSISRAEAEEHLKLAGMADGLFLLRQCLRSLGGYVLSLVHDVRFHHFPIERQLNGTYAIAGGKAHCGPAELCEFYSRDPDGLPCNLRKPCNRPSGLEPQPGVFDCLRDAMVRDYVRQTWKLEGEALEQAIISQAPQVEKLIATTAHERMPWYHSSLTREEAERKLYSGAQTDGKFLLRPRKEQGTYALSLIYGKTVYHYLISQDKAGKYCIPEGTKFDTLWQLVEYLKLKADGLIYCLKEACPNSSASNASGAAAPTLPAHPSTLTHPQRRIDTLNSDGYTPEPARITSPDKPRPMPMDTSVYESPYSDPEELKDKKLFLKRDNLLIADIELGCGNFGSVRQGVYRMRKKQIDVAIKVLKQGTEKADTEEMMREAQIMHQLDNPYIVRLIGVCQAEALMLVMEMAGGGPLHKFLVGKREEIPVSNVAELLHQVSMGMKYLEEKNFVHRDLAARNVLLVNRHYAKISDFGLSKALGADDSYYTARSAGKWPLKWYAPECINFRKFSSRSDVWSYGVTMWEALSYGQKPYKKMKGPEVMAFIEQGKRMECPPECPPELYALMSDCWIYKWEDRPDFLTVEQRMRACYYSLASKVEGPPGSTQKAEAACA
Sequence of UniProt O43148 (whole entry, looked up): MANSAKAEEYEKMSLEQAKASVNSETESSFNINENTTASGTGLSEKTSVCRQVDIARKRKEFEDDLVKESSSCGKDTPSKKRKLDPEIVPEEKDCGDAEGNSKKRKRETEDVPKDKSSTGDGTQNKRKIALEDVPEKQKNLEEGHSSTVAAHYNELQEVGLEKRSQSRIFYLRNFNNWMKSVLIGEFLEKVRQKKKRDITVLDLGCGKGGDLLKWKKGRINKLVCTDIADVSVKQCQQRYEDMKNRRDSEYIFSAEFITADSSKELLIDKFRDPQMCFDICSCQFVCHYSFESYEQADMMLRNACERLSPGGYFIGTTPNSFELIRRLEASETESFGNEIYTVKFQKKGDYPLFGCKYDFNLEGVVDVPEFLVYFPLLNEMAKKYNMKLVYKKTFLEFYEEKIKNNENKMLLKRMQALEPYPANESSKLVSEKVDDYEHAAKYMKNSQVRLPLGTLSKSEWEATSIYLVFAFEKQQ
Sequence of UniProt P21918 (whole entry, looked up): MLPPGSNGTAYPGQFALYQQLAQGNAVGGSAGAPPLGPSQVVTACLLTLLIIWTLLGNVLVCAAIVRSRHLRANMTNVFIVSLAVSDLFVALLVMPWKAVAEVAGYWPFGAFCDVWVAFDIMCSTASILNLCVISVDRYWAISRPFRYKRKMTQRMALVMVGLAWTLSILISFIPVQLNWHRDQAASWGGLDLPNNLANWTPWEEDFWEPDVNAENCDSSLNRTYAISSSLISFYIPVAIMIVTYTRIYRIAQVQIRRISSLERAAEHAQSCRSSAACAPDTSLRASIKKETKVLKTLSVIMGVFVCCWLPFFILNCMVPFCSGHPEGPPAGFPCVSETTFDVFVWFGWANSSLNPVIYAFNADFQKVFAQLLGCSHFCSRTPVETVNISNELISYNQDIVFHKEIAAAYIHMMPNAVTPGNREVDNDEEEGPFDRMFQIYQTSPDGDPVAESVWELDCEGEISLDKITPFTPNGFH
Sequence of UniProt P35372 (whole entry, looked up): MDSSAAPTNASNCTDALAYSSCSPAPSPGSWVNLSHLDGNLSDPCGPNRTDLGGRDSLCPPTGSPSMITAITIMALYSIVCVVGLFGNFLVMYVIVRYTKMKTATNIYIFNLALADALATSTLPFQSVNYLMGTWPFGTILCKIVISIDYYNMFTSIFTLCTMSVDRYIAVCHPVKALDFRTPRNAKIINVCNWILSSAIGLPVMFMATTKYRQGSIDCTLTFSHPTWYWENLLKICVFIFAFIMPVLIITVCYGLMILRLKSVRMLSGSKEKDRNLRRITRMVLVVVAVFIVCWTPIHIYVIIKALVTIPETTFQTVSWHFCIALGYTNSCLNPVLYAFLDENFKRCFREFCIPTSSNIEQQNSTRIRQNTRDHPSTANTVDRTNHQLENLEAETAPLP
Sequence of UniProt O00329 (whole entry, looked up): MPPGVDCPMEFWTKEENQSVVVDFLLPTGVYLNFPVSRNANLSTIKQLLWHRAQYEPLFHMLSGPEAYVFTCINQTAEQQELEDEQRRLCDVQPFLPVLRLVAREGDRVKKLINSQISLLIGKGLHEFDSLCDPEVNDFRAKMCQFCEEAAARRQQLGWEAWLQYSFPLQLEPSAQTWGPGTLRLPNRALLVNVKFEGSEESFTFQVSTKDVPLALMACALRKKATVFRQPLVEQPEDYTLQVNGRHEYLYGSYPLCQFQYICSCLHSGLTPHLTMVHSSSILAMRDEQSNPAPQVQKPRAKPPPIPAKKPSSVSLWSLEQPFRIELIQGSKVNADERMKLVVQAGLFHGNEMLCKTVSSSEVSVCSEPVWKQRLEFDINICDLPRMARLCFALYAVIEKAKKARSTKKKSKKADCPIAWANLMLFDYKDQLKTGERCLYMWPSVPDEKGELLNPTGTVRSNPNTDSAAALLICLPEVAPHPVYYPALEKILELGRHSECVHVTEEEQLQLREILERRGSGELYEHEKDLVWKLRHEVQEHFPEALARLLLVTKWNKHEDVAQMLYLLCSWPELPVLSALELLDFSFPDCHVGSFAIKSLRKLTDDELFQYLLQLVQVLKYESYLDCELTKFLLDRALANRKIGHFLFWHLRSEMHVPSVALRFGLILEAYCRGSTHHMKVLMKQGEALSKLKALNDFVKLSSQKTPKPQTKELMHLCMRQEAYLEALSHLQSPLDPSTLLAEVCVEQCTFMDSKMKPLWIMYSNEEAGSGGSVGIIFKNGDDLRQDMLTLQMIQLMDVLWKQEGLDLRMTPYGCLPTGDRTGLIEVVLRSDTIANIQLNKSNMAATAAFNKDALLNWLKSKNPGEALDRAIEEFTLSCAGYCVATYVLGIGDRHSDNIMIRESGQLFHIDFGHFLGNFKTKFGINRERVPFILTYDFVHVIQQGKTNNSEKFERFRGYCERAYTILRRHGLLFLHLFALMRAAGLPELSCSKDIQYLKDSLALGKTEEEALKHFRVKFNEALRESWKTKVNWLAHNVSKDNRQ
Sequence of UniProt Q15208 (whole entry, looked up): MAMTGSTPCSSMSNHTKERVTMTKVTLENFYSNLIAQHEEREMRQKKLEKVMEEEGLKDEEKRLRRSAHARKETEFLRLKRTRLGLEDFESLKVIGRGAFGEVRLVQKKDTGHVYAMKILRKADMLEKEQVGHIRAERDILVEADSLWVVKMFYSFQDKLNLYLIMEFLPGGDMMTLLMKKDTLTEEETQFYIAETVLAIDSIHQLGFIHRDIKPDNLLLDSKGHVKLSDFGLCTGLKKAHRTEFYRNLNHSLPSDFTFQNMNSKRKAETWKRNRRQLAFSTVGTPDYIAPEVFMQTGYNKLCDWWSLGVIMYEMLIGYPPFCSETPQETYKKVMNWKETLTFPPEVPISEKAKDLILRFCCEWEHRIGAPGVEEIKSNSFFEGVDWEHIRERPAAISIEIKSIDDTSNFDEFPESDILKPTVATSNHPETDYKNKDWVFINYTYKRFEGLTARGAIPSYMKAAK
Sequence of UniProt P27338 (whole entry, looked up): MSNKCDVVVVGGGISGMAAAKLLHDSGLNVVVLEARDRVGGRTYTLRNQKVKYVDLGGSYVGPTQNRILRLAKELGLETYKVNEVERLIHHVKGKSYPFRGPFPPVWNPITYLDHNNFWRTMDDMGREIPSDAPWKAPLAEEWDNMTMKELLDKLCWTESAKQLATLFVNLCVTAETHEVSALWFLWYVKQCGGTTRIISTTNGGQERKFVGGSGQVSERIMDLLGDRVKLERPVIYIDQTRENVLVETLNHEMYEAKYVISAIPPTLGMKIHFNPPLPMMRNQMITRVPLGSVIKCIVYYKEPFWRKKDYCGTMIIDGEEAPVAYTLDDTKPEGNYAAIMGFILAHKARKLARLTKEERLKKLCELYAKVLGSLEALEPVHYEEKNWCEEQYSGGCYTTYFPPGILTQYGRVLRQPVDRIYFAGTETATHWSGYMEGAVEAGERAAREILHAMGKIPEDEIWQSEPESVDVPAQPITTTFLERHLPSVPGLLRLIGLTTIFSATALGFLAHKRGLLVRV

The inhibition of `C#Cc1n[nH]c2c(-c3cn([C@@H](C)c4ccccn4)c(=O)[nH]c3=O)cc(F)cc12` is reported as -0.4% (Tyrosine-protein kinase ZAP-70 (ZAP70, Homo sapiens, UniProt P43403); enzyme activity, inhibitor; 0.1 µM).
For `CC(C)CC(=O)OC[C@H]1O[C@@](C#N)(c2ccc3c(N)ncnn23)[C@H](O)[C@@H]1O`, the inhibition was 10% (Amine oxidase [flavin-containing] B (MAOB, Homo sapiens, UniProt P27338); enzyme activity, inhibitor; 20 µM).
For `c1cncc([C@@H]2CCCN2)c1`, the inhibition was 11.1% (Mu-type opioid receptor (OPRM1, Homo sapiens, UniProt P35372); ligand displacement; 50 µM).
The inhibition of `Cn1cc(-c2cccc(N3CCc4c(sc5c4CC(C)(C)C5)C3=O)c2CO)cc(Nc2ccncn2)c1=O` is reported as -5% (Phosphatidylinositol 4,5-bisphosphate 3-kinase catalytic subunit delta isoform (PIK3CD, Homo sapiens, UniProt O00329); enzyme activity, inhibitor; 1 µM).
For `Cc1nnc(SCC2=C(C(=O)O)N3C(=O)[C@@H](NC(=O)Cn4cnnn4)[C@H]3SC2)s1`, the inhibition was -1.03% (Potassium/sodium hyperpolarization-activated cyclic nucleotide-gated channel 1; ion current, inhibitor; 3 µM).
With `Nc1ncnc2c1ncn2[C@@H]1O[C@H](C[C@@H](N)CC[C@H](N)C(=O)O)[C@@H](O)[C@H]1O` the inhibition was 11.2% (mRNA cap guanine-N(7) methyltransferase (RNMT, Homo sapiens, UniProt O43148); enzyme activity, inhibitor; 48.83 nM).
`CC(=O)Nc1ccc(O)cc1` has an inhibition of 15% (Potassium/sodium hyperpolarization-activated cyclic nucleotide-gated channel 1; ion current, inhibitor; 10 µM).
`[2H]c1c([2H])c([C@]2([2H])CCCN2C(=O)C(C)(C)Oc2ccc3cn[nH]c3c2)c([2H])c([2H])c1C([2H])([2H])[2H]` has a remaining binding of 100% (Serine/threonine-protein kinase 38 (STK38, Homo sapiens, UniProt Q15208); binding, competition with immobilised ligand; 1 µM).
For `CN1CCC[C@H]1c1cccnc1`, the inhibition was -0.77% (D(1B) dopamine receptor (DRD5, Homo sapiens, UniProt P21918); ligand displacement; 50 µM).
The inhibition of `Nc1ccncc1` is reported as -436% (Potassium/sodium hyperpolarization-activated cyclic nucleotide-gated channel 1; ion current, inhibitor; 10 µM).
